# Experimental data gathered from unrelated publications.
# Numbered parts are unrelated; each lists some results of a single study.

# Block 1 — method: protein binding microarray; form: double-stranded DNA, one strand shown; medium: in vitro; tested at: not given; baseline: not given; direction: higher = stronger binding
# Target: Histone acetyltransferase KAT6A, winged helix 2, GST fusion (KAT6A, Homo sapiens, UniProt Q92794, residues 85-181)
# Notes: 8-mer, flanks averaged, mean of 2 arrays, mostly near background
# Residues (chain): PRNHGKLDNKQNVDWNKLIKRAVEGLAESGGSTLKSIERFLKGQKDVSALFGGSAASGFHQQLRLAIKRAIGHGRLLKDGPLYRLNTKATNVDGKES
Sequence,E-score
GGTATTAC,0.0185
AATGAGAC,-0.259
AAGCGCCA,0.00523

# Single results of other studies
# IRF5 K96S/S451D/S453D/S456D/S462D full length, phosphomimetic: Interferon regulatory factor 5, full length, phosphomimetic (IRF5, Homo sapiens, UniProt Q13568-2, residues 1-514, K96S/S451D/S453D/S456D/S462D)
Molecule,target,test,test system,setting,how to read,measurement,value
GCCTAGCACTGAACTTCGGCCTCTAGGTTTGTGCTAGTCTTGATTCGCTTGACGCTGCTG,"IRF5 K96S/S451D/S453D/S456D/S462D full length, phosphomimetic",protein-binding microarray,"double-stranded DNA, one strand shown, in vitro","250 nM, 60-bp whole probe, with: salmon DNA 0.4 mg/ml","baseline: random background probes, higher = stronger binding",log fluorescence,0.0374 z-score
GACCTACA,"Sal-like protein 4, full length isoform A (SALL4, Homo sapiens, UniProt Q9UJQ4, residues 1-1053)",universal PBM,"double-stranded DNA, one strand shown, in vitro","600 nM, 8-mer, flanks averaged, mean of replicates",higher = stronger binding,E-score,-0.00874
"PhoQ, residues 284 288 289 292 302 303 SIHLQL","PhoP, residues 12 14 15 18 19 SPWRL (Escherichia coli, UniProt P23836)","Sort-seq, item: YFP reporter",E. coli,"PhoQ-PhoP variant library, with: 10 µM Mg2+","baseline: high Mg2+ state, higher = stronger signaling",fold induction,7.95
AATAACCT,"Sal-like protein 4, full length isoform B (SALL4, Homo sapiens, UniProt Q9UJQ4-2, residues 1-616)",universal PBM,"double-stranded DNA, one strand shown, in vitro","not given, 8-mer, flanks averaged, mean of replicates",higher = stronger binding,E-score,0.287
GCCTAGCACTTCGGTATCCTTTTCCTTTAGTGCTAGGTCTTGATTCGCTTGACGCTGCTG,"IRF5 K96S/S451D/S453D/S456D/S462D full length, phosphomimetic",protein-binding microarray,"double-stranded DNA, one strand shown, in vitro","250 nM, 60-bp whole probe, with: salmon DNA 0.4 mg/ml","baseline: random background probes, higher = stronger binding",log fluorescence,1.71 z-score

# A few entries again (single results of other studies):
Molecule,target,test,test system,setting,how to read,measurement,value
AATAACCT,"Sal-like protein 4, full length isoform B (SALL4, Homo sapiens, UniProt Q9UJQ4-2, residues 1-616)",universal PBM,"double-stranded DNA, one strand shown, in vitro","not given, 8-mer, flanks averaged, mean of replicates",higher = stronger binding,E-score,0.287
